Measured values from different studies.
Every numbered part comes from another study and shows a few of its results, in no order.

Series 1
Target: Histone acetyltransferase KAT6A, winged helix 1, GST fusion (KAT6A, Homo sapiens, UniProt Q92794, residues 1-85)
Technique: protein binding microarray
Molecule type: double-stranded DNA, one strand shown
Medium: in vitro
Tested at: not given
Setting: 8-mer, flanks averaged, mean of 2 arrays, mostly near background
Reference: not given
Direction: higher = stronger binding
Quantity: E-score
Construct (chain): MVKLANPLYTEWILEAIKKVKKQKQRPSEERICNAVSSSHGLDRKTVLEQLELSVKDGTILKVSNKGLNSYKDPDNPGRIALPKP
AGAGATTC: -0.193
GACATTGC: 0.0622
AATGCTAC: -0.127
CCGCCCTA: 0.223
TCATCTCA: -0.22
AAAAATAC: -0.0328
GCATGGGA: -0.178
AACAGCGT: 0.054
CATCAATA: -0.199
AAGGCTAC: -0.103
AAGATCCG: 0.0626
ACAGCTAC: -0.216
AATTCGGG: 0.0311
GCAACTAA: -0.0251
CTAATTTC: -0.0173
AAGACAAT: -0.0995
CTGCGGTC: 0.198
AGGGACGG: 0.268
CGATGCCC: 0.0759
GCACAAGC: -0.0509
ACCGTAAT: 0.128
GGGTCCGA: 0.145
CGGATGGC: 0.137
AAGCTTCC: -0.126
GGGGGCCA: 0.147

Series 2
Target: RNA binding protein fox-1 homolog 2, RRM domain, GST-SBP tag (RBFOX2, Homo sapiens, UniProt O43251-10, residues 100-194)
Technique: RNA Bind-n-Seq
Molecule type: RNA
Medium: in vitro
Tested at: 365 nM
Setting: natural RNA segment, single round, ends assumed
Reference: no-protein control
Direction: higher = stronger binding
Quantity: RBNS enrichment (R)
Construct (chain): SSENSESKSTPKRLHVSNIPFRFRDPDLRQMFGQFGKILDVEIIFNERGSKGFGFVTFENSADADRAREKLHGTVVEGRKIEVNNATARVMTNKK
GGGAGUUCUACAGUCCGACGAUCGGUUGUUUUGUACAUAUUGGAAUAUGUGUUAACUUAUGCCCCGCAUCCCAACUCACACGGAAGCACGGGUCUUGUCUCAGUCUCUUCGCUGCAUUUGGAAAGCAGUCUCCUGGAAUUCUCGGGUGCCAA: 0.434
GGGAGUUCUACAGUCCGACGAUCACUUGAAAACAUAGAUAGUUUAAUCUUGACUUGAAAAACACAAAAAUAAAUUCAGAAAAUGCUUUUAGCACAGUGUCUCUUUUUUAAAGUUUUGCCAAGUGUGGUUUUUAUGGAAUUCUCGGGUGCCAA: 0.409
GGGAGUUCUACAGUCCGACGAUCAGGGAAAGGGGACUUGUGGUAGUGGACCAUACCUGGGGACCAAAAGAGACCCACUGUAAUUGAUGCAUUGUGGCCCCUGAUCUUCCCUGUCUCACACUUCUUUUCUCCCAUGGAAUUCUCGGGUGCCAA: 1.35
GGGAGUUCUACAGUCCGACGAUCGGAUCGCCCCCCCCUUCCCAGUUCUCCAUAUCAGGGUAGAAGAUCUAGGCACUACAUAUGUAAUUGGUAAAGAAAAGGCAUUUUCUUAAGAGUUAUAACUAUGUAAACAUUGGAAUUCUCGGGUGCCAA: 0.348
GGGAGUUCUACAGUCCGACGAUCAUUGUGUUUUUAUGCUGUUUUAUACUUUUUUAUGAGUUAUGAUAGCAGCAAUUAAGUUGUUUGUAUUUUGCUUAACUAAAACAAAAAUGCUUUUAUCUUGCUAUAGAAUAUGGAAUUCUCGGGUGCCAA: 1.01
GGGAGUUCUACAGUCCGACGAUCUAGUUACAAUUACCUAGUUGGGGUUCUUCCUGAUGCAAGAAAUUUUUCACUGUUCGAGGCACAUGGUUAUUGGCUAUCCAUUUAGUUUUCACAGAGGCUGACCACCUUACUGGAAUUCUCGGGUGCCAA: 0.757
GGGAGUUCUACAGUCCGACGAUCGGUUGGCUCUGGCCAGGAUUCCAGGCAGCAGGUUGGAGUGACUGGUGGGCCUAGAUCACUGGUGUGAUAAACCCCAAUUUUCACCCCGGGGGGGGUGGGGUACACAGACAUGGAAUUCUCGGGUGCCAA: 0.5
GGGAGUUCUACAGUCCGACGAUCUGGUGAUUUCUGAUGUAAAUAAUGUUGUUUAUAUAGUAUGUAUUAAAUUUUCCUACAUUGUAAAACUCUGUACUUUUUUGAUUCUUGUAUAUUAAAAAGUGUUACUAAGGUGGAAUUCUCGGGUGCCAA: 2.39
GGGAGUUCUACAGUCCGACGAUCUCUUCAGUGUUUUGCUUGUUCACUGUCAUCAGAGCAGGGAUUAGACCUGUUAGGGAAUAUCUAUUGUCUUGAAGUCAGAGUAGCUCCCCAUUGUUGAGAUCAGUGGGCAUUGGAAUUCUCGGGUGCCAA: 0.378
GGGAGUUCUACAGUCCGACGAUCAUCCUUAGUAUGGUGGAAAGAUUUGUACCCUGACCCGCUCGAGUGGUGGUAGAUGUAUGUAAAUUAGAAGUUUGAAUGGGACAGGAUGAGAGUUCGAGGCUCUUUGUUUGUGGAAUUCUCGGGUGCCAA: 4.43
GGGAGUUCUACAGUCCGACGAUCUGGUCUGGAACAUUAGUUUUUUUAAGGCAACUGUGGCCAAUAUUUAUAUCAUGACAUACAAAUGGAUUUACGUAUUUGACUGAAAUGAAAGUUCCACUAAACGGUAUUUGUGGAAUUCUCGGGUGCCAA: 0.482
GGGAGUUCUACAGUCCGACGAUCGUAUCUGUAUCUCUCUCUCUUUUUGGAGGUGCUUAAGCAGAAGCAUUAACUUCUCUGGAAAGGGGGGAGCUGGGGAAACUCAAACUUUUCCCCUGUCCUGAUGGUCAGCUUGGAAUUCUCGGGUGCCAA: 0.202

Series 3
Target: Fragile X messenger ribonucleoprotein 1, C-terminal low-complexity region (Fmr1, Mus musculus, UniProt P35922)
Technique: RNA Bind-n-Seq
Molecule type: RNA
Medium: in vitro
Tested at: 200 nM
Setting: whole 134-nt RNA, ends assumed
Added: 150 mM KCl
Reference: input library
Direction: higher = stronger binding
Quantity: log2 enrichment
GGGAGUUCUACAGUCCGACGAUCAAGUCCUGUGCUACACAUCGUAUGUACCGAAUCGGGAGGGAAAAAGGGUUUUUGGGAAAGUAUUAUGUUACGCCGUUCGGAUCUGCACUUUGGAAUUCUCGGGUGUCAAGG: 0.585
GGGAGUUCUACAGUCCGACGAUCUGGCCCUGGUGGCAUGCGGGGAGGAAGAGGUGCCCUCAUGGAUCGUGGUGGUCCCGGUGGAAUGUUCAGAGGUGGCCGUGGUGGAGACAGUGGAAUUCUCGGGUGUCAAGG: 0.0532
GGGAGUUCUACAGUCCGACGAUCAAGUCCUGUGCUACACAUCGUAUGUACCGAAUCGGGGUGGGGAAAAAGGGGUGGGGAAAGUAUUAUGUUACGCCGUUCGGAUCUGCACUUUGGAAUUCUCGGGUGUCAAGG: 0.946
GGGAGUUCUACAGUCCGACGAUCUCAAGUCCUGUGCUACACAUCGUAUGUACCGAAUCGGUUGGGGUUGGGGUUGGGAAAGUAUUAUGUUACGCCGUUCGGAUCUGCACUUCCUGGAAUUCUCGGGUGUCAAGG: 1.13
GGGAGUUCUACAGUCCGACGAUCACCAUGCAGGUGGGCAUCUUUGGGAAGUGGGGCAAGGGGGGGAUAGAAAGGGGGGUAACACUUUGGGAACAGGUGGUCCCAGGUCGUUUCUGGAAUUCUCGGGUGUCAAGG: 0.499
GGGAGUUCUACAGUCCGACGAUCUCAAGUCCUGUGCUACACAUCGUAUGUACCGAAUCGGGGUUGGGGUUGGUUGGGAAAGUAUUAUGUUACGCCGUUCGGAUCUGCACUUCCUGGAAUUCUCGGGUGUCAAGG: 0.784
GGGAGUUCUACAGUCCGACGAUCUUUUACUUCUCCGCCAGGUGCUGUGCUCCAUCAUCGCCGGUACCUUGCACUAUCUCUACCUGGCCACCUUGACCUGGAUGCUGCUGGAGGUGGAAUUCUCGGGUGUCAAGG: -0.183
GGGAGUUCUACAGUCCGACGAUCGUCCUGUGCUACACAUCGUAUGUACCGAAUCGGGUUUUUGGGUUUUUGGGUUUUUGGGAAAGUAUUAUGUUACGCCGUUCGGAUCUGCACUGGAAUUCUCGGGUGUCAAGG: 0.193
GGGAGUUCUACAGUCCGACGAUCUAACUUUAGAGGAGGAUCUGAUGGAUAUGGCAGUGGACGUGGAUUUGGGGAUGGCUAUAAUGGGUAUGGAGGAGGACCUGAAGGUGGCAAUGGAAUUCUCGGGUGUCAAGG: 0.134
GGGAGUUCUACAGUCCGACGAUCCUCAAGUCCUGUGCUACACAUCGUAUGUACCGAAUCGGUGGUUUUUGGUUUGGAAAGUAUUAUGUUACGCCGUUCGGAUCUGCACUUCCAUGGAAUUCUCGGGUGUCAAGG: -0.26

Series 4
Target: Hepatocyte nuclear factor 3-alpha (Foxa1, Mus musculus, UniProt P35582, residues 1-468, full length assumed)
Technique: EMSA with sequencing
Molecule type: double-stranded DNA, one strand shown
Medium: in vitro
Tested at: 10 and 20 nM
Setting: whole designed probe, mean of two concentrations, ends assumed
Reference: negative control set to 0
Direction: higher = stronger binding
Quantity: normalised bound fraction
Target sequence (chain): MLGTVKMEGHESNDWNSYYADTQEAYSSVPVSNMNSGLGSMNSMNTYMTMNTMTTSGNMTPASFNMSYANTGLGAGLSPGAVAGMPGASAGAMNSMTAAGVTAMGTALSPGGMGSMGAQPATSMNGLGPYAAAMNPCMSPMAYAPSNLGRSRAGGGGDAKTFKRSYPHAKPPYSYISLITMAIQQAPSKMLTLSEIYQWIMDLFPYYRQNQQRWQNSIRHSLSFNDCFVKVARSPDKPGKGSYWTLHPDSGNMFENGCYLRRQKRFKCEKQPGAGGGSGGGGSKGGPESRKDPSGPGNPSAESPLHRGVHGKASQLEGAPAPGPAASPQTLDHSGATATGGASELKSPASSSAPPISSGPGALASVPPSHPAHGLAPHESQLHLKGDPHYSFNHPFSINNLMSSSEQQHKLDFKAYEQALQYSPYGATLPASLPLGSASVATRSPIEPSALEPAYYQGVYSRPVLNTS
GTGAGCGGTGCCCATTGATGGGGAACCAAAATGTGTTCACCTAAAGAGTATTATTTGTAAAATGCTTCGTGTTTTCTCCCTTTATGCTGACATGTAATGCTGACTCATAAGGGACCTTGCTATTTACACAAGCAGCTTTCCTATGTAAATGAATGCAAGTGACCTACTTAGTGAATACCACCAAATAAAGCAATGATTCCAGAAATCAACCCATAAGTATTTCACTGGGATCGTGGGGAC: 0.426 ratio
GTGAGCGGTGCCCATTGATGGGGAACCACTCAGCTGTTTTCTTAAACTTGGTTGAATAACTGGTATTCTTCCTGCTCACAAAGTCTTTGTTAGTGTGCATATTGCAAAACCATCCTAAGTAATCTGTCTGTGTCATCTGTATTAAAGGGAAGTTATGCATGGATTAGTGTATAATAGCATGGGTTAGGGAGAAAAATGAGTCACCAAAGTAGCTGGTTCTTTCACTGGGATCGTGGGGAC: -0.0448 ratio
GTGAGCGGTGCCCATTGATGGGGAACGCCAGGGCTGGAAGAAGCCAGCTAGAGCCTCACAGTGACTCAGATGCCACACTCCAATTGCACTGTAGTCAGCCCACTTGTGTCATAAAGCCTGTTTACACAAAGCCTAGCATATTAGAAGCAGCTGTGAGTCAGCCTGCTTCAGCTGCTGCTGCTGCCCCAAGAGGCCCATCTCTCCCTGTGATACTTTGGTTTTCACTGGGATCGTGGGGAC: 0.314 ratio
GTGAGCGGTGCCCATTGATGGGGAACGGATTTTTGTTTTATCTGATTACAAAATAATACATGTTCATTAAAACACTTTAGAAGTCCCATCATGCAAGATTACTACTAAAAACCAAGATAAAATTACTTTTATTTAAATATGTACAGTGTTTTACAAAATTGGGATGAATCATGATGTGCATGTATAATTTTGAATCCTCCTTTGGTCACTTAATGTCAGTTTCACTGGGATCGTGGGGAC: 0.0427 ratio
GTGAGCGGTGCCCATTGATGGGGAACAATCAGTTCAAAATAAAAAATATAAACCATTCAAGGAAACAAACTCTACATCATCCTAGGCCATCGTCAATTAGGGAAAGTCAGTAGGCAGAGTAATCTGGAAAATGTGTGCCTCACAATTTGAGATAATAGGACACTGAAAAATAAACTATAAAATTTGTGGCCGGGTGCAGTGGCTCACACCTGTAATCCCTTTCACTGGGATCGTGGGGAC: -0.00863 ratio
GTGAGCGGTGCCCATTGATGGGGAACAGGGAGTAGTGTTGACCCACCCCCACTCAACACTCAGTCCAGCCAGGCCAGCCCAGGAGGAAGTCATGTAGCCACGAATCTGCCCTGAATCACTGTTGACTTTTCCTTAGCTTTGTTTACAAAATTCATGACCACAGATAAATGGTACAACTCCTGGAATCAGGTTTTGTAGGGCTTGAAATGCATACAATTTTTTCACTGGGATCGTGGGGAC: 0.415 ratio
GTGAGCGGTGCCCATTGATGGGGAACACATGCTTTCTTTCCTTTTTTTTTTTCTTTTTGACCTGTGTGTTTTTTACTCTATGTAATTTTGGACAGCTGAATCATTACCTTTCTTATTCAAGATTACAGAGAGTTTATTTATTTGGAACAAAGAGAAAGTTTAAAAATTTGGAAGTTCTCCAAACATTTTCAGTTAAGCAGCATACCATATACAGTGATTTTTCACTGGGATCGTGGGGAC: 0.122 ratio
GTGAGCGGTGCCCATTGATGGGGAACGTAAAGCCAGTTACTTTTGTTATGTTTATGAATTCCTAGGCCTCTTGACAAACACTGAGGTTCTCAAACATTGGCAAACACAAGTCACATTAGGTAAACATACAAATTCTTGGCCTTAGTTCCATATATTTTATTCTGAACAAATAGCCCTTAAGTCAAAATTGAGAAACAATGATTAGTAATAAGTTTTTACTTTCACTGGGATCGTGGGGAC: 0.409 ratio
